{"data": "Results of several laboratories", "organism": "Staphylococcus aureus", "note": "Compare with care: the assays were run in different laboratories."}
{"SMILES": "CC(C)C[C@@H]1NC(=O)[C@@H](CC(C)C)NC(=O)[C@H](CCN)NC(=O)[C@@H](NC(=O)[C@H](CCN)NC(=O)[C@@H](NC(=O)CN=[N+]=[N-])[C@@H](C)O)CCNC(=O)[C@H]([C@@H](C)O)NC(=O)[C@H](CCN)NC(=O)[C@H](CCN)NC1=O", "assay": "broth microdilution", "system": "MSSA ATCC 29213, cation-adjusted Mueller-Hinton broth", "conditions": "20 to 24 h, 37 °C, 0.002% polysorbate 80", "MIC": "> 16 µg/mL"}
{"SMILES": "CC[C@H](C)[C@H](NC(=O)[C@@H](CCCNC(=N)N)NC(=O)[C@H](CCCNC(=N)N)NC(=O)[C@@H]1CCCN1C(=O)[C@@H]1CCCN1C(=O)[C@H](CCCNC(=N)N)NC(=O)[C@@H]1CCCN1C(=O)[C@H](CCCNC(=N)N)NC(=O)[C@@H]1CCCN1C(=O)[C@H](CC(C)C)NC(=O)[C@H](Cc1ccc(O)cc1)NC(=O)[C@@H]1CCCN1C(=O)[C@@H]1CCCN1C(=O)[C@H](CCCCN)NC(=O)[C@H](CC(=O)O)NC(=O)[C@@H](N)C(C)C)C(=O)N[C@@H](Cc1ccc(O)c([N+](=O)[O-])c1)C(=O)N[C@@H](CC(N)=O)C(=O)N[C@H](CCCNC(=N)N)C(N)=O", "assay": "broth microdilution", "system": "DSM 6247", "conditions": "18 h, 37 °C, 25% MHB2", "MIC": "> 128 µg/mL"}
{"SMILES": "N=C(N)NCCC[C@@H]1NC(=O)[C@H](CCCNC(=N)N)NC(=O)[C@@H](CCCNC(=N)N)NC(=O)[C@@H](CCCNC(=N)N)NC(=O)[C@@H](C(c2ccccc2)c2ccccc2)NC(=O)[C@H](Cc2c[nH]c3ccccc23)NC(=O)[C@@H](C(c2ccccc2)c2ccccc2)NC1=O", "system": "1193193, MRSA", "MIC": "8 µg/mL"}
{"SMILES": "c1ccc(CCNC2CCCc3c2[nH]c2ccc(C4CCCCC4)cc32)cc1 (stereo not drawn)", "assay": "broth microdilution", "system": "ATCC 29213", "MIC": "2 µg/mL"}
{"SMILES": "CC(=CC(C)CCCCC(=O)O)C1OC2C=CC1OC(=O)C=CC=CC=CC1OC3CC1OC(C=CCC1OC(CC(O)C1C)C(O)C(O)C=CCCC=CC2)C3C (stereo not drawn)", "assay": "microbial growth", "system": "DSM11822", "MIC": "0.2 µM"}
{"SMILES": "CN[C@H](CC(C)C)C(=O)N[C@H]1C(=O)N[C@@H](CC(N)=O)C(=O)N[C@H]2C(=O)N[C@H]3C(=O)N[C@H](C(=O)N[C@H](C(=O)O)c4cc(O)cc(O)c4-c4cc3ccc4O)[C@H](O)c3ccc(c(Cl)c3)Oc3cc2cc(c3O[C@@H]2O[C@H](CO)[C@@H](O)[C@H](O)[C@H]2O[C@H]2C[C@](C)(NCc3ccc(OCc4cn(CCCCC(=O)N[C@H](C(=O)N[C@@H](CCN)C(=O)N[C@H]5CCNC(=O)[C@H]([C@@H](C)O)NC(=O)[C@H](CCN)NC(=O)[C@H](CCN)NC(=O)[C@H](CC(C)C)NC(=O)[C@@H](CC(C)C)NC(=O)[C@H](CCN)NC5=O)[C@@H](C)O)nn4)c(OC)c3)[C@H](O)[C@H](C)O2)Oc2ccc(cc2Cl)[C@H]1O", "system": "VRSA 2 vanA", "MIC": "48 µM"}
{"SMILES": "O=C(c1ccccc1O)c1[nH]c(Cl)c(Cl)c1-n1c(C(=O)c2ccccc2O)cc(Cl)c1Cl", "assay": "microbial growth", "system": "BAA44 MRSA", "MIC": "1.33 µM"}
{"SMILES": "CC[C@H](C)[C@@H]1NC(=O)[C@H](C(C)C)NC(=O)[C@H](C(C)C)NC(=O)[C@H](CC(C)C)NC(=O)C[C@@H](C(=O)N[C@@H](Cc2c[nH]c3ccccc23)C(=O)N[C@@H](CC(N)=O)C(=O)N[C@@H](C)C(=O)N2CCC[C@H]2C(=O)NCC(=O)N[C@@H](Cc2c[nH]c3ccccc23)C(=O)N[C@@H](Cc2ccccc2)C(=O)O)NC(=O)[C@H](C)NC(=O)[C@H](CCC(N)=O)NC(=O)[C@H](C(C)C)NC1=O", "system": "ATCC 29213", "MIC": "> 32 µg/mL"}
{"SMILES": "Oc1c(Br)cc(Br)c2nc3cc(F)c(F)cc3nc12", "assay": "broth microdilution", "system": "25923", "MIC": "0.3 µM"}
{"SMILES": "CC(C)[C@H](NC(=O)[C@H](CCCNC(=N)N)NC(=O)[C@H](Cc1ccccc1)NC(=O)[C@H](CS)NC(=O)[C@H](Cc1c[nH]c2ccccc12)NC(=O)[C@@H](N)CCCCN)C(=O)N[C@@H](CS)C(=O)N[C@@H](Cc1c[nH]c2ccccc12)C(=O)N[C@@H](CCCNC(=N)N)C(=O)N[C@@H](Cc1c[nH]c2ccccc12)C(=O)N[C@@H](Cc1ccccc1)C(=O)N[C@@H](CS)C(=O)N[C@@H](Cc1c[nH]c2ccccc12)C(=O)N[C@@H](CCCNC(=N)N)C(=O)N[C@@H](CCCCN)C(=O)N[C@@H](CS)C(=O)N[C@@H](CCCNC(=N)N)C(=O)O", "assay": "broth microdilution", "system": "ATCC 29213, Mueller-Hinton broth", "conditions": "16 to 20 h, 37 °C", "MIC": "8.79 µg/mL"}
{"SMILES": "CCCCCCCC[C@H](NC(=O)[C@@H]1CSC([C@@H](N)[C@@H](C)CC)=N1)C(=O)N[C@H](CCC(=O)O)C(=O)N[C@H](C(=O)N[C@H]1CCCCNC(=O)[C@H](CC(N)=O)NC(=O)[C@@H](CC(=O)O)NC(=O)[C@H](Cc2c[nH]cn2)NC(=O)[C@@H](Cc2ccccc2)NC(=O)[C@H]([C@@H](C)CC)NC(=O)[C@@H](CCCN)NC1=O)[C@@H](C)CC", "system": "ATCC 29213 MSSA", "conditions": "LB with 0.3 mM ZnSO4", "MIC": "1 µg/mL"}
{"SMILES": "CC(C)C[C@@H]1NC(=O)[C@H](CCCCN)NC(=O)C(N)CCC=CCCC(C(N)=O)NC(=O)[C@H](CCCCN)NC(=O)[C@H](CC(C)C)NC(=O)[C@H](CCCCN)NC(=O)C2CCC=CCCC(NC(=O)[C@H](CCCCN)NC1=O)C(=O)N[C@@H](CCCCN)C(=O)N1CCC[C@@H]1C(=O)NCC(=O)N[C@@H](CCCCN)C(=O)N2 (stereo partly drawn)", "assay": "broth microdilution", "system": "ATCC 29737, Mueller-Hinton broth", "conditions": "18 h, 37 °C", "MIC": "128 µM"}
{"SMILES": "CC(C)[C@@H]1NC(=O)[C@@H](C(C)C)NC(=O)[C@H](C(C)C)NC(=O)[C@@H](C)NC(=O)[C@H](Cc2c[nH]c3ccccc23)NC(=O)[C@@H](C(C)C)NC(=O)[C@@H]2CSC1N2", "system": "NCTC 8325, Mueller Hinton broth", "conditions": "21 h, 37 °C", "MIC": "100 µg/mL"}
{"SMILES": "C#CCOc1ccc(CN[C@@]2(C)C[C@H](O[C@H]3[C@H](Oc4c5cc6cc4Oc4ccc(cc4Cl)[C@@H](O)[C@@H](NC(=O)[C@@H](CC(C)C)NC)C(=O)N[C@@H](CC(N)=O)C(=O)N[C@H]6C(=O)N[C@H]4C(=O)N[C@H](C(=O)N[C@H](C(=O)NCC(N)=O)c6cc(O)cc(O)c6-c6cc4ccc6O)[C@H](O)c4ccc(c(Cl)c4)O5)O[C@H](CO)[C@@H](O)[C@@H]3O)O[C@@H](C)[C@H]2O)cc1OC", "system": "NRS402 VISA", "MIC": "2 µM"}
{"SMILES": "CC[C@H](C)[C@H](NC(=O)[C@@H](CCCNC(=N)N)NC(=O)[C@H](CCCNC(=N)N)NC(=O)[C@@H]1CCCN1C(=O)[C@@H]1CCCN1C(=O)[C@H](CCCNC(=N)N)NC(=O)[C@@H]1CCCN1C(=O)[C@H](CCCNC(=N)N)NC(=O)[C@@H]1CCCN1C(=O)[C@H](Cc1ccccc1)NC(=O)[C@H](Cc1ccc(O)cc1)NC(=O)[C@@H]1CCCN1C(=O)[C@@H]1CCCN1C(=O)[C@H](CCCCN)NC(=O)[C@H](CC(=O)O)NC(=O)[C@@H](N)C(C)C)C(=O)N[C@@H](Cc1ccc(O)cc1)C(=O)N[C@@H](CC(N)=O)C(=O)N[C@H](CCCNC(=N)N)C(N)=O", "assay": "broth microdilution", "system": "DSM 6247", "conditions": "18 h, 37 °C, 25% MHB2", "MIC": "128 µg/mL"}
{"SMILES": "CN[C@H](CC(C)C)C(=O)N[C@H]1C(=O)N[C@@H](CC(N)=O)C(=O)N[C@H]2C(=O)N[C@H]3C(=O)N[C@H](C(=O)N[C@H](C(=O)NCc4cn(CCCCC(=O)N[C@H](C(=O)N[C@@H](CCN)C(=O)N[C@H]5CCNC(=O)[C@H]([C@@H](C)O)NC(=O)[C@H](CCN)NC(=O)[C@H](CCN)NC(=O)[C@H](CC(C)C)NC(=O)[C@@H](CC(C)C)NC(=O)[C@H](CCN)NC5=O)[C@@H](C)O)nn4)c4cc(O)cc(O)c4-c4cc3ccc4O)[C@H](O)c3ccc(c(Cl)c3)Oc3cc2cc(c3O[C@@H]2O[C@H](CO)[C@@H](O)[C@H](O)[C@H]2O[C@H]2C[C@](C)(N)[C@H](O)[C@H](C)O2)Oc2ccc(cc2Cl)[C@H]1O", "system": "MSSA ATCC 29213", "MIC": "0.098 µM"}
{"SMILES": "CC(C)C[C@H](NC(=O)[C@H](CC(C)C)NC(=O)[C@H](CCCCN)NC(=O)[C@H](Cc1ccccc1)NC(=O)[C@@H](NC(=O)[C@H](CCCNC(=N)N)NC(=O)[C@H](CCCCN)NC(=O)[C@H](Cc1c[nH]c2ccccc12)NC(=O)[C@@H](NC(=O)[C@@H](N)CCCNC(=N)N)C(C)C)C(C)C)C(=O)N[C@@H](CCCCN)C(=O)N[C@@H](CCCNC(=N)N)C(=O)N[C@@H](Cc1ccc(O)cc1)C(=O)N[C@@H](Cc1c[nH]c2ccccc12)C(=O)N[C@@H](CCCNC(=N)N)C(N)=O", "assay": "broth microdilution", "system": "25295", "MIC": "0.6 µg/mL"}
{"SMILES": "CC(C)C[C@@H]1NC(=O)[C@H](CCCCN)NC(=O)CSC[C@@H](C(=O)N[C@@H](CCCCN)C(N)=O)NC(=O)[C@H](CC(C)C)NC(=O)[C@H](CC(C)C)NC(=O)[C@H](CC(C)C)NC(=O)[C@@H]2CSCC(=O)N[C@@H](CCCCN)C(=O)N[C@@H](CC(C)C)C(=O)N[C@@H](CCCCN)C(=O)N[C@@H](CCCCNC(=O)[C@H](CCCCN)NC1=O)C(=O)N[C@@H](CCCCN)C(=O)N[C@@H](CC(C)C)C(=O)N[C@@H](CC(C)C)C(=O)N2", "assay": "broth microdilution", "system": "Newman, methicillin-susceptible", "MIC": "> 128 µg/mL"}
{"note": "A few entries again:"}
{"SMILES": "CC[C@H](C)[C@@H]1NC(=O)[C@H](C(C)C)NC(=O)[C@H](C(C)C)NC(=O)[C@H](CC(C)C)NC(=O)C[C@@H](C(=O)N[C@@H](Cc2c[nH]c3ccccc23)C(=O)N[C@@H](CC(N)=O)C(=O)N[C@@H](C)C(=O)N2CCC[C@H]2C(=O)NCC(=O)N[C@@H](Cc2c[nH]c3ccccc23)C(=O)N[C@@H](Cc2ccccc2)C(=O)O)NC(=O)[C@H](C)NC(=O)[C@H](CCC(N)=O)NC(=O)[C@H](C(C)C)NC1=O", "system": "ATCC 29213", "MIC": "> 32 µg/mL"}
{"SMILES": "CC(C)C[C@@H]1NC(=O)[C@@H](CC(C)C)NC(=O)[C@H](CCN)NC(=O)[C@@H](NC(=O)[C@H](CCN)NC(=O)[C@@H](NC(=O)CN=[N+]=[N-])[C@@H](C)O)CCNC(=O)[C@H]([C@@H](C)O)NC(=O)[C@H](CCN)NC(=O)[C@H](CCN)NC1=O", "assay": "broth microdilution", "system": "MSSA ATCC 29213, cation-adjusted Mueller-Hinton broth", "conditions": "20 to 24 h, 37 °C, 0.002% polysorbate 80", "MIC": "> 16 µg/mL"}
